Assay results from different studies.
Compare with care: the assays were run in different laboratories. ± gives the spread as reported.
HapB/HapC/HapE/HapX HapX 24-158: HapB/HapC/HapE/HapX HapX 24-158 (Aspergillus fumigatus)
B1: enzyme N249W (Thermobifida fusca, UniProt Q47RK4); chain MTDVYILDAVRTPFGRYGGALSGIRPDDLAAHVLRALAERSPGLDPAAVDDVFFGDANGAGEDNRNVARMAALLAGWPTSVPGVTLNRLCGSGMESVIAANRAIAVGDASLAVAGGVESMSRAPWVLPKPAQGFPTGHETLYSTTLGWRMVNPAMPEQWTVSLGESTEQVAATYGISRAEQDAFALRSHERAARAWAEGVFDAEITQIPGAELERDESIRETSAEKLAALKPAFRPDGTITAGNASPLWDGAAALLIGDAAAAERVGREPLARIVSRGVAAVDPDVFGIGPVQAAEIALRRAGIGWDDLSVVELNEAFAAQSLACLKLWPDLDPEIVNPNGGAIAIGHPLGASGARIVGTLAHELHRRGGGWGLAAICIGVGQGLAVVLHR
Sequence of UniProt P60386 (whole entry, looked up): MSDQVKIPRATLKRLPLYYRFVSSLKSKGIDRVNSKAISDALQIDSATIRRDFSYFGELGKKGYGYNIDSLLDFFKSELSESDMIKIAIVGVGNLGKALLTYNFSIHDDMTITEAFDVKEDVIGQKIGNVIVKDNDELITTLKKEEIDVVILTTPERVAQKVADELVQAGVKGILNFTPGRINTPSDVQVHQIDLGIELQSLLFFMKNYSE
Sequence of UniProt O15354 (whole entry, looked up): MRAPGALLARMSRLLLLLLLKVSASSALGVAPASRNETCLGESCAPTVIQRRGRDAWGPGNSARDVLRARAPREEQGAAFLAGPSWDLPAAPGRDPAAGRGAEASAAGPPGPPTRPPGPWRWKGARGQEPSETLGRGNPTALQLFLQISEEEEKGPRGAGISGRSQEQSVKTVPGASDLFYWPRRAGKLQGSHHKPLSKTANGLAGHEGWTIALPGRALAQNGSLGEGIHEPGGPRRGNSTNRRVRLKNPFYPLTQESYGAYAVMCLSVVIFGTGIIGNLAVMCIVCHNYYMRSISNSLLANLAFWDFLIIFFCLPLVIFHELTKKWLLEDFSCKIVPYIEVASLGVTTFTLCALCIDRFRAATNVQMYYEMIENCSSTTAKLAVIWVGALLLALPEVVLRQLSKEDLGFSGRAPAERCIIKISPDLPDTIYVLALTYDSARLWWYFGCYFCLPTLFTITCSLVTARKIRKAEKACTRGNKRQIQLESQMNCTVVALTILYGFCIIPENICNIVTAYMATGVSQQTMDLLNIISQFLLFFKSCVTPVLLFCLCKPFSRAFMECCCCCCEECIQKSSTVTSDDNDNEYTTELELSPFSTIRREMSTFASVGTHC
Sequence of UniProt Q12884 (whole entry, looked up): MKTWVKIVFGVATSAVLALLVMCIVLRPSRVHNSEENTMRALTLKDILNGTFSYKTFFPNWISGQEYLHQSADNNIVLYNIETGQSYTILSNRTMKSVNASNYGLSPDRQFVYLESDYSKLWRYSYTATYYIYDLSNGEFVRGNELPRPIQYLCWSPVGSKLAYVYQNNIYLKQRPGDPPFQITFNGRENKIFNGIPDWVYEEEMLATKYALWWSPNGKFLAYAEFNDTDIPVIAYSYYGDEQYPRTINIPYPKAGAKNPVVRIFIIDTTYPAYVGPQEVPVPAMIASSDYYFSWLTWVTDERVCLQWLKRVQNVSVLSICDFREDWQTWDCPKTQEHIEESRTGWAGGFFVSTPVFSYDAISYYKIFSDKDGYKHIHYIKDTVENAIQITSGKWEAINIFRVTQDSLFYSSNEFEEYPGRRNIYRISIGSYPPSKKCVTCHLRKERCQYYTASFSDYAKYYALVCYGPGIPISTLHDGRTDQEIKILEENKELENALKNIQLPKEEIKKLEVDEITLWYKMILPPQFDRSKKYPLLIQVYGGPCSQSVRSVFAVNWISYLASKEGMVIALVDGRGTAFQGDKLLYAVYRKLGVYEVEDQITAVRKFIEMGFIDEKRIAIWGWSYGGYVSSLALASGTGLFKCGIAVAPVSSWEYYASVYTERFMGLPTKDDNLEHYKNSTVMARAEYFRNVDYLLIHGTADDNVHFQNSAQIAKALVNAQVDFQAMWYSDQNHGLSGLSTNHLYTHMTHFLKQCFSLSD

`TCTACAGCCAATCAGTATCATTATAAAGAAGCTGACGGGAGG (dsDNA)` has a Kd of under 100 nM (HapB/HapC/HapE/HapX HapX 24-158; SPR; double-stranded DNA, one strand shown; HapX on preformed CBC:DNA).
`CCSSC[C@H](NC(=O)[C@H](CC(=O)O)NC(=O)[C@H](Cc1ccccc1)NC(=O)[C@H](CCC(=O)O)NC(=O)[C@@H](NC(C)=O)[C@@H](C)CC)C(=O)NCC(=O)N[C@@H](Cc1cn(CCCNC(=O)CCCCC[N+]2=C(/C=C/C=C/C=C3/N(C)c4ccc(S(=O)(=O)[O-])cc4C3(C)C)C(C)(C)c3cc(S(=O)(=O)O)ccc32)nn1)C(=O)NCc1ccc(C(=O)NCCCOc2cnc(C#N)nc2)cc1`: cytotoxicity “no effect” (CD19-28ζ CAR T cells; 0, 2.5 and 5 µM, overnight, with: A20-Luc target cells).
`melittin`: “free energy of partitioning” -6 kcal/mol (CD titration; POPC 100% POPG 0% vesicles; pH 7.0, 60 °C).
Under “hydrolysis to emetine”, `CC[C@H]1CN2CCc3cc(OC)c(OC)cc3[C@@H]2C[C@@H]1C[C@@H]1c2cc(OC)c(OC)cc2CCN1C(=O)OCc1ccc(NC(=O)[C@H](C)NC(=O)[C@@H]2CCCN2C(=O)CNC(=O)[C@H](C)NC(=O)[C@@H]2CCCN2C(=O)CNC(=O)[C@H](CO)NC(=O)[C@H](C)NC(C)=O)cc1` is recorded as 0% (Prolyl endopeptidase FAP (FAP, Homo sapiens, UniProt Q12884); substrate, HPLC-MS; 250 µM, 24 h, pH 7.8, 37 °C, 2.5% DMSO).
`AAATCCACCAATCAACGCCTCCGTGATTGTCAGCAAT (dsDNA)` gave a Kd of 0.4 nM (HapB/HapC/HapE/HapX HapX 24-158; SPR; double-stranded DNA, one strand shown; HapX on preformed CBC:DNA).
For `COc1cccc2c1C(=O)c1c(O)c3c(c(O)c1C2=O)C[C@@](O)(C(=O)CO)C[C@@H]3O[C@H]1C[C@H](NC(=O)[C@@H]2CCCN2C(=O)CNC(=O)[C@H](CC(C)C)NC(=O)[C@H](C)NC(=O)CP(=O)(O)O)[C@H](O)[C@H](C)O1`, the Tmax was 5 min (mouse, E0771 tumour-bearing, plasma; intravenous, 92 µmol/kg).
`ATATACACTACAAGCGACCGATATATTGATGCTTGCTCAAATAAATGTTGAGTAGGGATTCATATATCGGTCGCTTTTTTTGATTTAACAAAAAGGGAAAATGTATAAGGAATATGCATGACTACAGGCATCAGGGAATTCCCTGATTTTACATTATAATGTGATTCTTTTCACAAAAACAAAATGATTTGGTATACAATACGTGTGAAAGGGTTGGTAAATGTGAATGG (dsDNA)` gave a Kd of 270 nM (rex 1-211 (Staphylococcus aureus, UniProt P60386); EMSA; double-stranded DNA, one strand shown; apparent).
With `B1 (enzyme N249W)` the kcat/Km was 1.17 M⁻¹ s⁻¹ (CC(C)(COP(=O)(O)OP(=O)(O)OC[C@H]1O[C@@H](n2cnc3c(N)ncnc32)[C@H](O)[C@@H]1OP(=O)(O)O)[C@@H](O)C(=O)NCCC(=O)NCCSC(=O)CC(=O)O; steady-state kinetics; pH 7.4, 37 °C).
With `Cc1ccccc1NC(=O)Nc1ccc(CC(=O)N[C@@H](CCCCNC(=O)/C=C/c2cccnc2)C(=O)N[C@@H](CCCC(=O)O)C(=O)NC2(C(=O)NCCOCCOCCOCCOCC(=O)N[C@@H](CCCCNC(=S)Nc3ccc(C[C@H]4CN(CC(=O)O)CCN(CC(=O)O)CCN4CC(=O)O)cc3)C(N)=O)CCCCC2)cc1` [fluorine-18 labelled] the defluorination was under 5% (radio-HPLC; human serum; 4 h, 37 °C).
`N=C(N)NCCC[C@@H]1NC(=O)[C@H](CCCCNC(=O)CNC(=O)CNC(=O)CNC(=O)CC[C@H](NC(=O)CCOCCOCCOCCOCCNC(=O)c2ccc(NN)nc2)C(=O)NCC(=O)NCC(=O)NCC(=O)NCCCC[C@@H]2NC(=O)[C@@H](Cc3ccccc3)NC(=O)[C@H](CC(=O)O)NC(=O)CNC(=O)[C@H](CCCNC(=N)N)NC2=O)NC(=O)[C@@H](Cc2ccccc2)NC(=O)[C@H](CC(=O)O)NC(=O)CNC1=O` [technetium-99m labelled] has a tissue uptake of 0.2 ± 0.08 %ID/g (γ-counting; female athymic nude mice, U-87 MG xenograft, brain; intravenous, 0.5 h).
Under ERK phosphorylation, `pertussis toxin` is recorded as “inhibited” (GPR37 (Homo sapiens, UniProt O15354); antagonist; HEK293 cells overexpressing GPR37; concentration not given, pretreatment, with: osteocalcin).
`N=C(N)NCCC[C@@H]1NC(=O)[C@H](CCCCNC(=O)[C@H](CC(=O)O)NC(=O)[C@H](CC(=O)O)NC(=O)[C@H](CC(=O)O)NC(=O)CC[C@H](NC(=O)CCOCCOCCOCCOCCNC(=O)c2ccc(NN)nc2)C(=O)N[C@@H](CC(=O)O)C(=O)N[C@@H](CC(=O)O)C(=O)N[C@@H](CC(=O)O)C(=O)NCCCC[C@@H]2NC(=O)[C@@H](Cc3ccccc3)NC(=O)[C@H](CC(=O)O)NC(=O)CNC(=O)[C@H](CCCNC(=N)N)NC2=O)NC(=O)[C@@H](Cc2ccccc2)NC(=O)[C@H](CC(=O)O)NC(=O)CNC1=O` [technetium-99m labelled] gave a tissue uptake of 19.9 ± 0.28 %ID/g (γ-counting; female athymic nude mice, U-87 MG xenograft, kidneys; intravenous, 1 h).
With `COc1cccc2c1C(=O)c1c(O)c3c(c(O)c1C2=O)C[C@@](O)(C(=O)CO)C[C@@H]3O[C@H]1C[C@H](NC(=O)[C@H](CC(C)C)NC(=O)[C@H](C)NC(=O)[C@H](CC(C)C)NC(=O)CCNC(=O)CCC(=O)O)[C@H](O)[C@H](C)O1` the Tmax was 5 min (mouse, E0771 tumour-bearing, tumor; intravenous, 92 µmol/kg).
